Assay results collected from several papers.
Each numbered part is a random draw from the data of one study; scales do not carry over between parts. Several values in a cell are separate wells, animals, samples, runs or records.
Sequence of UniProt Q9H3Y6 (whole entry, looked up): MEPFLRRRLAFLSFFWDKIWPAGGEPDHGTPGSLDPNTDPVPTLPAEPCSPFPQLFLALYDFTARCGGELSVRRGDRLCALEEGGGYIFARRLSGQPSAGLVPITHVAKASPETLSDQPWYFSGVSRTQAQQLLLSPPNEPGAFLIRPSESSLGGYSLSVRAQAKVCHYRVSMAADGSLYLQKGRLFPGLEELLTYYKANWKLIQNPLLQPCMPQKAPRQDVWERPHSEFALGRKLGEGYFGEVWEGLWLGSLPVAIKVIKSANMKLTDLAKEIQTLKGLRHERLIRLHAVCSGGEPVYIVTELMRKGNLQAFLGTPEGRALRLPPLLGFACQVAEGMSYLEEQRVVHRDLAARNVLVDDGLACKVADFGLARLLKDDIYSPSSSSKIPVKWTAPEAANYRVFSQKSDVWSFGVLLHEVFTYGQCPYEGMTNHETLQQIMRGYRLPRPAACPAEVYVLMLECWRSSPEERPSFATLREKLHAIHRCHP
Sequence of UniProt P16234 (whole entry, looked up): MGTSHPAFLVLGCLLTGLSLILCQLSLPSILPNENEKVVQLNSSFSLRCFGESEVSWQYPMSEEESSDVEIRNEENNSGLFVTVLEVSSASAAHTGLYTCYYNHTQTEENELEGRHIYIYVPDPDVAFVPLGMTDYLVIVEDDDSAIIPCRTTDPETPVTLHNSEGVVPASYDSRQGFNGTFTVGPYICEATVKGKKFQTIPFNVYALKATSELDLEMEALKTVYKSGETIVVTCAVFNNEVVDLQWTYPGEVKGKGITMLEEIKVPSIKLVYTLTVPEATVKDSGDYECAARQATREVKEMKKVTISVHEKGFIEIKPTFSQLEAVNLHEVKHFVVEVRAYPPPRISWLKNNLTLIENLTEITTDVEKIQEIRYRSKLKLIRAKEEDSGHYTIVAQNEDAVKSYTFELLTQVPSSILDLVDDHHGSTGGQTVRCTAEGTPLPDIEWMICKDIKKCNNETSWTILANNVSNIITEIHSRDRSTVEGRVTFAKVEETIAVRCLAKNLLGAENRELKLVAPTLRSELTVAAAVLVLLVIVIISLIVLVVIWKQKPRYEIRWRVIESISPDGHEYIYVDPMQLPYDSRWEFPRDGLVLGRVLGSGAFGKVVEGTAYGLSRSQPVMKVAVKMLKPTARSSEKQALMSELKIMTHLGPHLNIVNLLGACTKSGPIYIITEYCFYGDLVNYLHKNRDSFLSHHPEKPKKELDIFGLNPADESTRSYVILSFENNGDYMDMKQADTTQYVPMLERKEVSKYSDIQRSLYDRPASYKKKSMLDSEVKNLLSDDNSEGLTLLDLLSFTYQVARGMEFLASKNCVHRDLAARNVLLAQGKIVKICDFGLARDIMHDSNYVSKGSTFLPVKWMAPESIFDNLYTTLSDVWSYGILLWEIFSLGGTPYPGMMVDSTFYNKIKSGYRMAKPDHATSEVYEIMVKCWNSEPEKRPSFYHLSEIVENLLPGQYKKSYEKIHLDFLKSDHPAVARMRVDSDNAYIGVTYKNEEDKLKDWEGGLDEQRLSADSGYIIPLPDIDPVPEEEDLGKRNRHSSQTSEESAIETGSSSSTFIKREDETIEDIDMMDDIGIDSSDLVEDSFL
Sequence of UniProt Q13163 (whole entry, looked up): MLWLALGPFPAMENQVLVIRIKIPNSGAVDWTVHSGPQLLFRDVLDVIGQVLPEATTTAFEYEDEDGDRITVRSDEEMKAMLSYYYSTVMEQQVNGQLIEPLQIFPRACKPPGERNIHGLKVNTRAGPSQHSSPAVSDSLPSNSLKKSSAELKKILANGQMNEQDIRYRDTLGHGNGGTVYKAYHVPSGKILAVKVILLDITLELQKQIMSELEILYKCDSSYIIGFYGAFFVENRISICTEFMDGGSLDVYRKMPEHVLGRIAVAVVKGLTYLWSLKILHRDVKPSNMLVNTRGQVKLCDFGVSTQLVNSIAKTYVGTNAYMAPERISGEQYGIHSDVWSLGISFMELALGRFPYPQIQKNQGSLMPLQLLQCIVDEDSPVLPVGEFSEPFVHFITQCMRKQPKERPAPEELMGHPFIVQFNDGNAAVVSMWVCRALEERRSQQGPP
Sequence of UniProt Q99640 (whole entry, looked up): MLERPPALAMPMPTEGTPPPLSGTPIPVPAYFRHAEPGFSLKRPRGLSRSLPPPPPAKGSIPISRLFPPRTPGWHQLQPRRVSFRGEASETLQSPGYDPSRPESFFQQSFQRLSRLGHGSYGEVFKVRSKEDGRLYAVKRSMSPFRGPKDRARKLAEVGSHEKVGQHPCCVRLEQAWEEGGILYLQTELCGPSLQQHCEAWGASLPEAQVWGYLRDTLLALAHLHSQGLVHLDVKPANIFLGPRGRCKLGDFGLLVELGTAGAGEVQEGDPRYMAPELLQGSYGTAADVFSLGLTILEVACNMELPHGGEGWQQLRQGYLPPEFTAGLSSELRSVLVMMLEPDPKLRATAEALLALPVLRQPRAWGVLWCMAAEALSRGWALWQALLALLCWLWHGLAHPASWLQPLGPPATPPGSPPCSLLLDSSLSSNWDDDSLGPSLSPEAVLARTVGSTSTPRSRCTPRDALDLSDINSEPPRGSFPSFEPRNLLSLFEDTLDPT
Sequence of UniProt Q92630 (whole entry, looked up): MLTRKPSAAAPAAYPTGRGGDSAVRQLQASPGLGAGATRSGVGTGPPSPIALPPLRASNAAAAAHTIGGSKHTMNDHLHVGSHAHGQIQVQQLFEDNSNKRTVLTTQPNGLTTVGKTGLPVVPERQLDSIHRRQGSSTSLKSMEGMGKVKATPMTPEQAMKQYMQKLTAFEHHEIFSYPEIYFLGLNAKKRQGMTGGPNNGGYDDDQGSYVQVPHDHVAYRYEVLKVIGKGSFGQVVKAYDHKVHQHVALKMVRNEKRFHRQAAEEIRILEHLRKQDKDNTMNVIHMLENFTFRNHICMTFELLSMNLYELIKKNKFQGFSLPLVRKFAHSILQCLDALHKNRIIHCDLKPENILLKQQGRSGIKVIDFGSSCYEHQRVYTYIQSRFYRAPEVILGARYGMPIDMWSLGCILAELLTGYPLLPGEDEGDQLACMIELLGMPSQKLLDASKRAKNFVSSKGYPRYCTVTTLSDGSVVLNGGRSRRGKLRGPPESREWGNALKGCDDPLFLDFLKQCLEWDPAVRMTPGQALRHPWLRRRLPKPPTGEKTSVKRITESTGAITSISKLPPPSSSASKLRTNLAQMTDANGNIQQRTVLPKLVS
Sequence of UniProt P11309 (whole entry, looked up): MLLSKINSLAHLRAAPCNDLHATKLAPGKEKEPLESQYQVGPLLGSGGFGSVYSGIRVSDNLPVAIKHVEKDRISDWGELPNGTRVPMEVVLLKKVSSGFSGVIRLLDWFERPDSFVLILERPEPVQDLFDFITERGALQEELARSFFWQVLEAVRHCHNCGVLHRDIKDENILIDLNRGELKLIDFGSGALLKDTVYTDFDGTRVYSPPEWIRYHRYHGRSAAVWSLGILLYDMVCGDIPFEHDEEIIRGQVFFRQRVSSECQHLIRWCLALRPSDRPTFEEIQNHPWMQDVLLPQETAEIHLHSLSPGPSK

Set 1
SMILES: C[C@@H]1CN(c2ccc(-c3cc(C(=O)NCCOCCOCCOCCOCCNC(=O)/C=C/c4[nH]cc(C(=O)N[C@@H](CC(N)=O)c5ccc(F)c(Cl)c5)c4-c4ccc(Cl)cc4F)ccc3F)cc2NC(=O)c2c[nH]c(=O)cc2C(F)(F)F)C[C@H](C)N1C
Read-out: thermal unfolding
Method: differential scanning fluorimetry
Tested at: 5.5 µM
Direction: higher = more unfolded
Quantity: SYPRO Orange fluorescence
DCAF1: DDB1- and CUL4-associated factor 1 (DCAF1, Homo sapiens, UniProt Q9Y4B6)
Sequence of UniProt Q9Y4B6 (whole entry, looked up): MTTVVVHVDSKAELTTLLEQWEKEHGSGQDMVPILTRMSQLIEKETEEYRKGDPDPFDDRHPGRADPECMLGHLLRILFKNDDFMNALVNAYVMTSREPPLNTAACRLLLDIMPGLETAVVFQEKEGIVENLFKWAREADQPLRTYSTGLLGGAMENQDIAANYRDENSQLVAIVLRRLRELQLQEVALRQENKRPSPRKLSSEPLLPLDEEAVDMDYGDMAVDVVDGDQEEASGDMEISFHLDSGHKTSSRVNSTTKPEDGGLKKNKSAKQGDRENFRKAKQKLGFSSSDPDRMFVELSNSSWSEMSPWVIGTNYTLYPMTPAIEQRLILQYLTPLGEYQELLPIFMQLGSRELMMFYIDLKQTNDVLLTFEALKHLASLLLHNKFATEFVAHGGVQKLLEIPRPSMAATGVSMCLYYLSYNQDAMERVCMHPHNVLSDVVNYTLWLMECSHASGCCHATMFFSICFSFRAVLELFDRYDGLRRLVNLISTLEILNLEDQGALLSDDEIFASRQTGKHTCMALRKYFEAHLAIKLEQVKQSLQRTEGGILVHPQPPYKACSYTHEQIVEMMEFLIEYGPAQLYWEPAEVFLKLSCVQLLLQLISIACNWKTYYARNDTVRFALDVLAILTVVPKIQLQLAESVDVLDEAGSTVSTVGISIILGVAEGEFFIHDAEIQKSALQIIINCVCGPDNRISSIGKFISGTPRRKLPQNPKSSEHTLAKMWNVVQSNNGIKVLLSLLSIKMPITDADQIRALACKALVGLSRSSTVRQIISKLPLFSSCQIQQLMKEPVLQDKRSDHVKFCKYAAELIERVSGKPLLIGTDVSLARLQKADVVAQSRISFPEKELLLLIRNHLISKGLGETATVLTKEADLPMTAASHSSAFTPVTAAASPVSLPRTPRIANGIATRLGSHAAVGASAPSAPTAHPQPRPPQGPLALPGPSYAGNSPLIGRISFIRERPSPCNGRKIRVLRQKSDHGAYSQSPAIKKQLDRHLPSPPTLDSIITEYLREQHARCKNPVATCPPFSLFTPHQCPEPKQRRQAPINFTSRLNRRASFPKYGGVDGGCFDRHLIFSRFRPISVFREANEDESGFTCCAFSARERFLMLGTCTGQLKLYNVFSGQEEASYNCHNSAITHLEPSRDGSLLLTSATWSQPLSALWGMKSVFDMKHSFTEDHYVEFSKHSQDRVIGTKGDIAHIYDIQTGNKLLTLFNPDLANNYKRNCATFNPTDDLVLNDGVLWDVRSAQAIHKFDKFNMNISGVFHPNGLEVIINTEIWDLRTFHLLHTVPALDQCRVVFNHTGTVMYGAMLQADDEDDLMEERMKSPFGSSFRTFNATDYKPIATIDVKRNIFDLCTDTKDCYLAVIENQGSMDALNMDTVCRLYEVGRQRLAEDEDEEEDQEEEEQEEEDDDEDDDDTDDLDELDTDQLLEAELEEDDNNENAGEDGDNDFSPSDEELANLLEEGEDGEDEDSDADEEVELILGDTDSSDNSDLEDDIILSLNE
WDR5: WD repeat-containing protein 5 (WDR5, Homo sapiens, UniProt P61964)
DCAF1; 35 °C: 10200 a.u.
DCAF1; 82.21 °C: 42900 a.u.
DCAF1; 32.8 °C: 9770 a.u.
WDR5; 78.41 °C: 35600 a.u.
WDR5; 89.81 °C: 51400 a.u.
WDR5; 86.81 °C: 53700 a.u.
DCAF1; 29.2 °C: 9370 a.u.
DCAF1; 38.4 °C: 11100 a.u.
DCAF1; 89.01 °C: 36100 a.u.
WDR5; 32 °C: 12700 a.u.
WDR5; 58.41 °C: 16200 a.u.

Set 2
SMILES: Cc1ncsc1-c1ccc(C(CO)NC(=O)C2CC(O)CN2C(=O)C(C(C)C)n2cc(-c3ccc(COc4c(-c5c(C)c(F)cc6[nH]ncc56)c(C5CC5)cc5c(N6CC7CC6CN7)nc(OC6CCOCC6)nc45)cc3)nn2)cc1 (centres unmarked)
Read-out: cell growth or viability
Method: ATP luminescence
Time: 6 days
Quantity: viability
GP5d; 10 nM: 46.5% and 33.2% and 52.1% and 39.6%
GP5d; 30 nM: 50.8% and 31.9% and 39.9% and 49.6%
HCT-116; 0.1 µM: 78.3% and 82.9% and 80.3% and 88.9%
ASPC1; 1 µM: 8.78% and 5.21% and 7.56% and 6.26%
NCI-H1299; 1 µM: 106% and 86.9% and 117% and 107%
COLO 320; 0.1 µM: 85.7% and 105% and 86.9% and 87.3%
BXPC-3; 0.1 µM: 158% and 119% and 118% and 76.5%
T24; 0.3 µM: 96.6% and 91.9% and 92.1% and 90.7%
HPAC; 1 nM: 71.1% and 69.6% and 48.5% and 54.6%
PSN1; 3 µM: 89.2% and 86.7% and 85.6% and 69.9%

Set 3
Structure (SMILES): CN1CCC[C@H]1COc1nc2c(c(N3CCN(C(=O)C(F)(F)F)[C@@H](CC#N)C3)n1)CCN(c1cccc3cccc(Cl)c13)C2
Read-out: binding
Action: competitor
Method: NanoBRET
Cell line: HEK293
Quantity: normalized BRET
KRAS Q61H: GTPase KRas (KRAS, Homo sapiens, UniProt P01116, Q61H)
KRAS Q61H; 15.2 nM: 88.9% and 102% and 96.2% and 97.4%
GTPase KRas (KRAS, Homo sapiens, UniProt P01116, G13D); 33.3 µM: 19% and 9.32% and 25.5% and 12.7%
KRAS Q61H; 1.69 nM: 101% and 96.8% and 98.7% and 91.1%
KRAS Q61H; 5.08 nM: 95.8% and 101% and 92%
KRAS Q61H; 137 nM: 86.3% and 91.1% and 96.4% and 95.4%
GTPase KRas (KRAS, Homo sapiens, UniProt P01116, G12D); 5.08 nM: 109% and 98.9% and 100%

Set 4
Compound: CC[C@@]1(c2cccc(-c3c(F)cncc3OC)c2)C2=C(Nc3n[nH]cc31)[C@H](F)C(C)(C)CC2=O (single isomer, unassigned)
Tested at: 1 µM
Quantity: remaining binding
Platelet-derived growth factor receptor alpha (PDGFRA, Homo sapiens, UniProt P16234); kinase binding, KINOMEscan; baseline: DMSO control: 79%
Dual specificity tyrosine-phosphorylation-regulated kinase 2 (DYRK2, Homo sapiens, UniProt Q92630); binding, competition with immobilised ligand: 55%
Ephrin type-B receptor 1 (EPHB1, Homo sapiens, UniProt P54762); binding, competition with immobilised ligand: 80%
Epidermal growth factor receptor (EGFR, Homo sapiens, UniProt P00533, A750P/del747-749); kinase binding, KINOMEscan; baseline: DMSO control: 100%
Transient receptor potential cation channel subfamily M member 6 (TRPM6, Homo sapiens, UniProt Q9BX84); binding, competition with immobilised ligand: 77%
Tyrosine-protein kinase Srms (SRMS, Homo sapiens, UniProt Q9H3Y6); binding, competition with immobilised ligand: 69%
Dual specificity mitogen-activated protein kinase kinase 5 (MAP2K5, Homo sapiens, UniProt Q13163); binding, competition with immobilised ligand: 65%
Ribosomal protein S6 kinase alpha-3, C-terminal kinase domain (RPS6KA3, Homo sapiens, UniProt P51812); binding, competition with immobilised ligand: 68%
Serine/threonine-protein kinase pim-1 (PIM1, Homo sapiens, UniProt P11309); kinase binding, KINOMEscan; baseline: DMSO control: 100%
Membrane-associated tyrosine- and threonine-specific cdc2-inhibitory kinase (PKMYT1, Homo sapiens, UniProt Q99640); binding, competition with immobilised ligand: 100%
Tyrosine-protein kinase ABL1, non-phosphorylated (ABL1, Homo sapiens, UniProt P00519, T315I); kinase binding, KINOMEscan; baseline: DMSO control: 90%

A few entries again (set 1):
DCAF1; 38.4 °C: 11100 a.u.
WDR5; 78.41 °C: 35600 a.u.
WDR5; 32 °C: 12700 a.u.
DCAF1; 29.2 °C: 9370 a.u.
DCAF1; 89.01 °C: 36100 a.u.
DCAF1; 32.8 °C: 9770 a.u.
